Results gathered from unrelated publications.
Numbered parts are unrelated; each lists some results of a single study. Substitutions count along the parent as printed.
UniProt Q9P286, sequence (whole entry, looked up): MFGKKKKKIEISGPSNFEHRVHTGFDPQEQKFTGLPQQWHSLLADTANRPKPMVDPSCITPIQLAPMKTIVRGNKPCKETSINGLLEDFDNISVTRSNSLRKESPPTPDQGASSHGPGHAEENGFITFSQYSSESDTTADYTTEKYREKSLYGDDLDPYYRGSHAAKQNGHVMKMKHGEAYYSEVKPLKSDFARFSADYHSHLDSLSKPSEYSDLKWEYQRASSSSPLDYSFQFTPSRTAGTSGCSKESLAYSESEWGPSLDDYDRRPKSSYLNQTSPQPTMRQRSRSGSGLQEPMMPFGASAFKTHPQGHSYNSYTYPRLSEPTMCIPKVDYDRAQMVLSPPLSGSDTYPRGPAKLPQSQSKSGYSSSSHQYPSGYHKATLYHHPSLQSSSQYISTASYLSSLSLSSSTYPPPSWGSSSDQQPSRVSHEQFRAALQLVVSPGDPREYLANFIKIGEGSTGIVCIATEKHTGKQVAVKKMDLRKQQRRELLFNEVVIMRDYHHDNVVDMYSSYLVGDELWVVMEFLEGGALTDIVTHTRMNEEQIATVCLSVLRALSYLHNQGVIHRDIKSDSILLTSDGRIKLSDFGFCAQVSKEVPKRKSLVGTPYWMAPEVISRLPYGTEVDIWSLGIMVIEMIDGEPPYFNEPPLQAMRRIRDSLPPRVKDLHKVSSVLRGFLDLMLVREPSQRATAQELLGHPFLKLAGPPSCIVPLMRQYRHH
UniProt P07947, sequence (whole entry, looked up): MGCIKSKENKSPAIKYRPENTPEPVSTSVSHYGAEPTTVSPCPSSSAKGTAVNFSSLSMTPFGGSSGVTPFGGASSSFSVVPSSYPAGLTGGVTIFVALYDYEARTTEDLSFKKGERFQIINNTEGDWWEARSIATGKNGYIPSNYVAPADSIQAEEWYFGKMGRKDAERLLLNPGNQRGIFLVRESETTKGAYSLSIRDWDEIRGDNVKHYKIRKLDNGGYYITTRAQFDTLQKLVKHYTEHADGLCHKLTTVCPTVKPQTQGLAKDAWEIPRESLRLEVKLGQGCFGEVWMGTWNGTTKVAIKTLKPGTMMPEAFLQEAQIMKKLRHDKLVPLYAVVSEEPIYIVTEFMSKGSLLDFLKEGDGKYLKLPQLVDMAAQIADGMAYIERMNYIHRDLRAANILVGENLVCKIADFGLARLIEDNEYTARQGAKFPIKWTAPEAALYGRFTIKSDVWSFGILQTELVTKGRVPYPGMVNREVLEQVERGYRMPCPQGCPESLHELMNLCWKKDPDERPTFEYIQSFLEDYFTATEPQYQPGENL
UniProt P42680, sequence (whole entry, looked up): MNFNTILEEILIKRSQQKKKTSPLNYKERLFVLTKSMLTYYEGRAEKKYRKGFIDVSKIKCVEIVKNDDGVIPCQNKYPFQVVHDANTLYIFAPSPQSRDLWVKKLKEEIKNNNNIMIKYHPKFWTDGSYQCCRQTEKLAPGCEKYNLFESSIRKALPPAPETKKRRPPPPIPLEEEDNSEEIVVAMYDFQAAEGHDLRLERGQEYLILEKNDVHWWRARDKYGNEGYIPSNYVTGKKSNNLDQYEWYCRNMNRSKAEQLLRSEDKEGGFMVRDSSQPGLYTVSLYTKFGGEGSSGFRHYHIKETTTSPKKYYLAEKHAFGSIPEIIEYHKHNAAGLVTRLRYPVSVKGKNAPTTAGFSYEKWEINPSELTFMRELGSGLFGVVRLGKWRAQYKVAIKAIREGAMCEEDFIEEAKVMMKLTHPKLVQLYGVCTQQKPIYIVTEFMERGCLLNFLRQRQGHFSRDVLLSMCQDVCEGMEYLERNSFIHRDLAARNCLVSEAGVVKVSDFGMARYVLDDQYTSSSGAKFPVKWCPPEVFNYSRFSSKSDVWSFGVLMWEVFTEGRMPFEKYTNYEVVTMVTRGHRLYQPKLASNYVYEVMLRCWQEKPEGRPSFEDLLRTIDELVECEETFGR
UniProt Q8IWQ3, sequence (whole entry, looked up): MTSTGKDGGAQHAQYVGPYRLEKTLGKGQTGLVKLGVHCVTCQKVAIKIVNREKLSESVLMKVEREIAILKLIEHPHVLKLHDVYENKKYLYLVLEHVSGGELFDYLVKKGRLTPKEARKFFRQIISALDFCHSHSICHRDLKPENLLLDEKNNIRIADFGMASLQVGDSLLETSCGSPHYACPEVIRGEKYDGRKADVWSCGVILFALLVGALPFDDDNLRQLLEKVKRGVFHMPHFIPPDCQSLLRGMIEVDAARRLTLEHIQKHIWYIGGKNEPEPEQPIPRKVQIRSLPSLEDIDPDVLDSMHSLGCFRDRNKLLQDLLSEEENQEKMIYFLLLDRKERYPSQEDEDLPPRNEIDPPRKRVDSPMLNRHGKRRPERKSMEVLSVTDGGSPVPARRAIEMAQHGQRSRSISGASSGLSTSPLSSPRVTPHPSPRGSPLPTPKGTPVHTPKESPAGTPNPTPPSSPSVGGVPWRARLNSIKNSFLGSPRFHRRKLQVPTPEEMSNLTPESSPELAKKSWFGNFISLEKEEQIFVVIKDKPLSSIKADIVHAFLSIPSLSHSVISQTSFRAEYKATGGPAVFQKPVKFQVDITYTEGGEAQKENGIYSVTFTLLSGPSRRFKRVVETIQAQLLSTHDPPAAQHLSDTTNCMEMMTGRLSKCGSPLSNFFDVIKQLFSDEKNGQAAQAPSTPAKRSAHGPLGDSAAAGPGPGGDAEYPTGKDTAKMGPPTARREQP
UniProt Q9UBS0, sequence (whole entry, looked up): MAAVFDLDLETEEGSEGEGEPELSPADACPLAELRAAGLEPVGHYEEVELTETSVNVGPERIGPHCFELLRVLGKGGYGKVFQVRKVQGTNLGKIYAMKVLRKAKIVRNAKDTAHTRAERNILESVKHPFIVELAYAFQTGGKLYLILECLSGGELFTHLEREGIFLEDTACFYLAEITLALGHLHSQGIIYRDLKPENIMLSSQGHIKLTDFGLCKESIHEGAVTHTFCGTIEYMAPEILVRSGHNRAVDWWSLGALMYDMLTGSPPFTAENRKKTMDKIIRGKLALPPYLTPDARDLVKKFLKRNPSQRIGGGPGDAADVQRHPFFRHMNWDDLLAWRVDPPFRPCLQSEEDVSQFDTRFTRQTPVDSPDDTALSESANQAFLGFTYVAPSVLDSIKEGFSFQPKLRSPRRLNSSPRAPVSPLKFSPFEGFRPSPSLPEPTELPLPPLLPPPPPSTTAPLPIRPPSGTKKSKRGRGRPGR
UniProt P49759, sequence (whole entry, looked up): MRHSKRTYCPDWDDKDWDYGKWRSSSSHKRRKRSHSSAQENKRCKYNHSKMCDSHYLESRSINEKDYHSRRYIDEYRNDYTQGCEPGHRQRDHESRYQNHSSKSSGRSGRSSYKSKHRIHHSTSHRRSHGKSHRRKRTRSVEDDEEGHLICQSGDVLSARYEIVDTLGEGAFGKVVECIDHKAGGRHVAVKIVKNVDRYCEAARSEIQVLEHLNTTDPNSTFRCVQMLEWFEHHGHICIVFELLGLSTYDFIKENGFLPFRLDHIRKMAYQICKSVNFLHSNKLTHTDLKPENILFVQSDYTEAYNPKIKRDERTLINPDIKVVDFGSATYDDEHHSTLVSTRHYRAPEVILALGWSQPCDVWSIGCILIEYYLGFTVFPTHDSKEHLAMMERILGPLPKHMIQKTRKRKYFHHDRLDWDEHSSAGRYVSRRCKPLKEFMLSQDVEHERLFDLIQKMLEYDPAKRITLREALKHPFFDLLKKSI
UniProt Q14680, sequence (whole entry, looked up): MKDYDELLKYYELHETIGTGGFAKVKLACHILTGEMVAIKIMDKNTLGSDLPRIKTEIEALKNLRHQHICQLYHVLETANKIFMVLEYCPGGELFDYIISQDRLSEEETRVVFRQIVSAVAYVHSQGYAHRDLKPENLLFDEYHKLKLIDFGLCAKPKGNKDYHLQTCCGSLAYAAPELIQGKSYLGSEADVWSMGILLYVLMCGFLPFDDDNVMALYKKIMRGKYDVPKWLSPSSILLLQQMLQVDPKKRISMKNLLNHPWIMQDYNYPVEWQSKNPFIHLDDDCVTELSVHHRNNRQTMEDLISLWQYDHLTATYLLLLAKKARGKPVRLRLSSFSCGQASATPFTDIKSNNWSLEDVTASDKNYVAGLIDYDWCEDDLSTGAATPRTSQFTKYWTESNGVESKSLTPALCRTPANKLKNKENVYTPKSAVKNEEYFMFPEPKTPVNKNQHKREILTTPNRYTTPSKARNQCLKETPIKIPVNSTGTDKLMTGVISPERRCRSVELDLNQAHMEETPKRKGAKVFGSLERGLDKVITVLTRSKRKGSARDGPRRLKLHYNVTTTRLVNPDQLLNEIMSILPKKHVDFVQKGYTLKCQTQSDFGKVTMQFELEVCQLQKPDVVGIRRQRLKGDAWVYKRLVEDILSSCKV
UniProt P11309, sequence (whole entry, looked up): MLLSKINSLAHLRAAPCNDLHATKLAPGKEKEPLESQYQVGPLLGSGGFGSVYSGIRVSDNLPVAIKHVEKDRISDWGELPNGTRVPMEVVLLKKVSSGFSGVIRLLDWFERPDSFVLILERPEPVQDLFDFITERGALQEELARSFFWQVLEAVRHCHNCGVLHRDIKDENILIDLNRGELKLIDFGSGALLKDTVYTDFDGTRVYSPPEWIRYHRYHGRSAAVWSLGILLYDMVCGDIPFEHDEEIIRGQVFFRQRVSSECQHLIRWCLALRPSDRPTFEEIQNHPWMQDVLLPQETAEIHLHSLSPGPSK
UniProt Q14012, sequence (whole entry, looked up): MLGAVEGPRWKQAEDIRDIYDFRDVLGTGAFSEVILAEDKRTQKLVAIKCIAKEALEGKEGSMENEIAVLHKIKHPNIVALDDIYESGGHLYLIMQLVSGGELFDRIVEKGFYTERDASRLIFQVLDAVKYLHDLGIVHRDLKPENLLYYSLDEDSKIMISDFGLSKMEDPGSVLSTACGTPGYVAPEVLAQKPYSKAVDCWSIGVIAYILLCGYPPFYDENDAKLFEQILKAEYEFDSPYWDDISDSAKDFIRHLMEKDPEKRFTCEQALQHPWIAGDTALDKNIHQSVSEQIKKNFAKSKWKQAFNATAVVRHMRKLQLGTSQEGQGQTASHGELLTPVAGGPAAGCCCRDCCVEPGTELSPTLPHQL

Block 1
Target: MAFF, bZIP domain (human)
Technique: DHFR protein complementation
Sample: yeast
Notes: single substitutions, most at no-binding floor
Baseline: wild-type JUN-FOS pair
Direction: higher = stronger binding
Parent: JUN, bZIP domain (human); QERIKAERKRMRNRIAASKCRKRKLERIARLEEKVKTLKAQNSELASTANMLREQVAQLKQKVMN; partner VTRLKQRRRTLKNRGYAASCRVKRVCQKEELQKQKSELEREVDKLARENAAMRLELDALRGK
`K34L` gave a binding fitness of -1.21 natural log.
`A57T` has a binding fitness of -1.34 natural log.
The binding fitness of `Q55G` is reported as -1.48 natural log.
With `S47K` the binding fitness was -1.49 natural log.
For `A49Y`, the binding fitness was -1.52 natural log.
`R53V` has a binding fitness of -1.53 natural log.
For `V35S`, the binding fitness was -1.32 natural log.
For `E33L`, the binding fitness was -1.34 natural log.

Block 2
Cell line: normal-adjacent organoid sample E
Technique: CellTiter-Glo
Concentration: 0.1 µM
Notes: replicate mean
Baseline: DMSO
The viability of `CC(C)CC(=O)N1CCc2nc(-c3ccc(Br)cc3)nc(N(C)Cc3ccccc3)c2C1` is reported as 160%.
For `COc1cc(N[C@@H]2CCCC[C@]2(O)C(F)(F)F)ccc1F`, the viability was 120%.
For `CCS(=O)(=O)c1cc2cc(C[C@@](O)(CC(C)(C)c3ccc(F)cc3C(N)=O)C(F)(F)F)[nH]c2cn1`, the viability was 111%.
`CS(=O)(=O)NCC[C@H](NC(=O)c1cncc2c1cnn2-c1ccc(F)cc1)c1ccnc(S(C)(=O)=O)c1` has a viability of 153%.
With `Nc1cnc(N2CCc3cc(S(=O)(=O)Nc4c(F)cc(Cl)cc4F)cc(N4CCCC4=O)c32)nc1` the viability was 113%.
For `CCCOc1ccc([C@H]2[C@H](C(=O)O)[C@@H](c3ccc4c(c3)OCO4)CN2CC(=O)Nc2c(CC)cccc2CC)cc1`, the viability was 122%.
`O=C(NCc1ncc(C(F)(F)F)cc1Cl)c1ccc2c(c1)C1(CCS(=O)(=O)CC1)[C@H](C1CC1)N2S(=O)(=O)c1ccc(F)cc1` gave a viability of 91.4%.
With `Cc1cc(Nc2nccc(C)n2)cc(-c2cnc([C@@]3(O)CC[C@H](C(=O)O)C(C)(C)C3)s2)c1` the viability was 104%.

Block 3
SMILES: COc1ccc(Cl)cc1NC(=O)Nc1cc(C)nc2ccccc12
Effect on: enzyme activity
Mode: inhibitor
Concentration: 0.5 µM
Baseline: control
For Serine/threonine-protein kinase PAK 5 (PAK5, Homo sapiens, UniProt Q9P286): remaining activity read 85.1%.
The remaining activity was 96.2% (Ribosomal protein S6 kinase alpha-3 (RPS6KA3, Homo sapiens, UniProt P51812)).
The remaining activity was 103% (Dual specificity tyrosine-phosphorylation-regulated kinase 1A (DYRK1A, Homo sapiens, UniProt Q13627)).
For Ribosomal protein S6 kinase beta-2 (RPS6KB2, Homo sapiens, UniProt Q9UBS0): remaining activity read 106%.
The remaining activity was 102% (Serine/threonine-protein kinase MARK1 (MARK1, Homo sapiens, UniProt Q9P0L2)).
Maternal embryonic leucine zipper kinase (MELK, Homo sapiens, UniProt Q14680) — remaining activity: 106%.
It gave 94.8% for remaining activity (Serine/threonine-protein kinase PAK 1 (PAK1, Homo sapiens, UniProt Q13153)).
Cyclin-dependent kinase 5, with p35 (CDK5, Homo sapiens, UniProt Q00535) — remaining activity: 102%.
For Dual specificity protein kinase CLK1 (CLK1, Homo sapiens, UniProt P49759): remaining activity read 97.6%.
It gave 95.2% for remaining activity (Serine/threonine-protein kinase BRSK2 (BRSK2, Homo sapiens, UniProt Q8IWQ3)).
For Casein kinase I isoform epsilon (CSNK1E, Homo sapiens, UniProt P49674): remaining activity read 86.4%.
It gave 98.1% for remaining activity (Serine/threonine-protein kinase pim-1 (PIM1, Homo sapiens, UniProt P11309)).
It gave 113% for remaining activity (Calcium/calmodulin-dependent protein kinase kinase 1 (CAMKK1, Homo sapiens, UniProt Q8N5S9)).
It gave 91.7% for remaining activity (Calcium/calmodulin-dependent protein kinase type 1 (CAMK1, Homo sapiens, UniProt Q14012)).
It gave 99.7% for remaining activity (Mitogen-activated protein kinase kinase kinase 20 (MAP3K20, Homo sapiens, UniProt Q9NYL2)).
Tyrosine-protein kinase Tec (TEC, Homo sapiens, UniProt P42680) — remaining activity: 110%.
The remaining activity was 82.5% (SRSF protein kinase 1 (SRPK1, Homo sapiens, UniProt Q96SB4)).
The remaining activity was 90.1% (Tyrosine-protein kinase Yes (YES1, Homo sapiens, UniProt P07947)).

Block 4
Host: human
Sample: microsomes or S9
Concentration: 2 µM
Time: 0.5 h
The remaining compound of `Cc1n[nH]c(C)c1CNC(=O)C1CCN(C(=O)c2ncn3c2COC(c2ccc(F)cc2)C3)CC1` (centres unmarked) is reported as 68.9%.
The remaining compound of `Oc1ccccc1Oc1ncc(Br)c(Cl)n1` is reported as > 99.9%.
`CCC(c1ccc(F)cc1)S(=O)(=O)c1ncc(CO)n1C` (centres unmarked) gave a remaining compound of > 100%.
`Cc1nc2ncnn2c(C)c1CCC(=O)OC1(C)CCC(C)(C)CC1` has a remaining compound of 95.4%.
The remaining compound of `Cc1ccc(-c2cn3c4c(sc3n2)C(=O)C(C)(C)CC4)cc1` is reported as 7.77%.
For `Cc1ccc(C(=O)COC(=O)c2ccc(Cn3ccccc3=O)o2)s1`, the remaining compound was 37.8%.

Further values, each from its own experiment
`CCOC(=O)[C@@H]1CSCC(=O)N[C@@H](CC)C(=O)N(C)[C@@H](C)C(=O)N[C@H](CC(C)C)C(=O)N2CCC[C@H]2C(=O)N(CC(C)C)CC(=O)N[C@H](CC(C)C)C(=O)N(C)[C@H](C)C(=O)N[C@@H](CC(C)C)C(=O)N1C` has a logD of 2.13 (hydrocarbon/water).

Some of these lines once more (block 3):
For Serine/threonine-protein kinase PAK 5 (PAK5, Homo sapiens, UniProt Q9P286): remaining activity read 85.1%.
The remaining activity was 96.2% (Ribosomal protein S6 kinase alpha-3 (RPS6KA3, Homo sapiens, UniProt P51812)).
The remaining activity was 103% (Dual specificity tyrosine-phosphorylation-regulated kinase 1A (DYRK1A, Homo sapiens, UniProt Q13627)).
